# Published values pooled from the literature.
# Every numbered part comes from another study and shows a few of its results, in no order. Positions count from the first letter of the parent shown.

# Sample 1 — technique: RNA Bind-n-Seq; form: RNA; medium: in vitro; tested at: not given; reference: input RNA pool; direction: higher = stronger binding
# Target: RING finger protein unkempt homolog, zinc fingers 1-6, GST-SBP tag (UNK, Homo sapiens, UniProt Q9C0B0, residues 30-357)
# Chain of UniProt Q9C0B0 (30-357, looked up): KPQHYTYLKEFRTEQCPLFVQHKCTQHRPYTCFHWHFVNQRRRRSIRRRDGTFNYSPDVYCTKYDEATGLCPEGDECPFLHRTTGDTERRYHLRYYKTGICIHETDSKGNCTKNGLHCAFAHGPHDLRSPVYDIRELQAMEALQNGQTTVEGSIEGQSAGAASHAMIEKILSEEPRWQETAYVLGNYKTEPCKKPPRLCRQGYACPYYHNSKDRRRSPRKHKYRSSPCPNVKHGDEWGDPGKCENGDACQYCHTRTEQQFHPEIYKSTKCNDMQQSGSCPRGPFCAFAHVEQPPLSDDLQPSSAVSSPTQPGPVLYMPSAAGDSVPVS
# Setting: RNA with constant flanks, human and mouse sites, ends assumed
# Shared flanks, not repeated: GGGAGUUCUACAGUCCGACGAUC … CAACAGAGGAUUGAGCAUCA
Sequence,bound/input enrichment [ratio]
ACCUCUUUAGUGUGUUCUGUGACGCUGCUCAUUACGAUUCUGUGUUCUACUUUGAUCCUUUUAGCUGUUUUCAAAUAUGGCCACUUUUCCCUGUAAGUUUUGUACAGCUAAGUGUUUUCU,0.535
UCAAAAAAAAGUGUAUUUCAGACUUGGUAUUCCUACUGUGGGGUGUGGUUUUCCUUUGUUUUUAGUAGCAAAUUUGGAUGUAGACUGACAGACAUAGCUGAAUGUCUUAAUAAAUUUAAA,1.12
GGCCCAAAAGGAAAUGAAAUACGAACAUCAAAAGAAGUUGAACCUUUCAACAAUAUUGAUAUUGAAAUUUCUAUGUUUGAAAAAGGGAAGGUACCUAAGAUUGUCAACCUAAGGGAAAUA,0.223
CGAUUUUUUUAUAAAGAGAAAGAAUCUGUGAACGCCAAAGUUCUUAAGGAUGUUAAGUUUCCUCUUAUGUUGGAUGUGUAUGAACUCUGCACACCAGAACUUCAAGAGAAAAUGGUCUCU,0.225
UUCUGUGCACAUCAGUUGGCUGGUGAACAAGGCUAUAUCAGACUUAUUUUCCAAGGACCUUUAGACUAGCAGCUGUCCUCCAGGACUGCAUUGUAAGUUUAUAAGCUAAGUGAUUGGGUU,0.213
CAUCUAGUUCUGACUCCACUGAUGCAUUCAGAUUACCUGAGGUGGGUGAGCAUCAGUGGGUUCUUGGAUGACUGUUUCCUGACGAUUCUUUUCAUGCUGUACUAUGGAGUAUAUGAAGGG,0.18
AACGCUUCCGUGAGACUUGACAAUAGCUCUGGUGCAAGUGUGGUAGCUAUCGACAACAAAAUAGAGCAAGCUAUGGAUCUGGUGAAAAGCCAUUUGAUGUAUGCGGUGAGGGAGGAAGUG,0.517
AAUGUAGUGUUUUUCCUUUAUAACAUACUUCAGUGACUAAAACUGCUGGCAGCAGUUAAGUUAGUGGGCUUUCUGACUGCAGAUAGGAUUAUUCAUUAAAAAUGUCUGUGUGAUGCUGUA,2.27
ACUGGCCGUUACGAUGAGGGAGACAGUCGGGGGGGGGGGGCAGUCACCAGCUGAGCUGUACAGCCACAGCCACGGCCGCGGCAUGGCUCGGAGCUUGUUUGACACUGUGCUCAGUCUGUU,1.92
AAGCACUCAAAGCAAAGAAAGAAGAUGGGAAUAAAGCAUUUAAGGAAGGAAAUUACAAACUAGCAUAUGAACUGUACACAGAAGCCCUGGGGAUAGACCCCAACAAUAUAAAAACAAAUG,2.78
CUACCCUUGGCACAGGCCUCCAGUGAGCCUGUUCUGUUUCAGAAGAAAGGGGAAGCAGUGUAGCAUUUUUUGUUUGGUCUCUUAAAAAUGUGGUUAAAUCCACUAUUUUUUGCUCCUGUA,0.245

# Sample 2 — target: CCNB3, cyclin fold, Cln2 fusion (human); technique: yeast growth competition, sequencing; medium: yeast; setting: weak parent motif; reference: not given; direction: higher = stronger binding
# Starting sequence: E2F1 docking peptide (human); PPVKRRLDLETDH; partner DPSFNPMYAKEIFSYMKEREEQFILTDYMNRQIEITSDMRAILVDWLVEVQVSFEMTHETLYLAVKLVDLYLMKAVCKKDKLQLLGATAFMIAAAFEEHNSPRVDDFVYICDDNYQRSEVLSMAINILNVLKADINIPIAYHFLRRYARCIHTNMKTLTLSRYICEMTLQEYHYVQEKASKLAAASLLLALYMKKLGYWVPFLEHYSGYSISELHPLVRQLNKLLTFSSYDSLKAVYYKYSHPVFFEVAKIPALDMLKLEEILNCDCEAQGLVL
Variant,normalised enrichment score
PPVKRRLDLETDD [H13D],0.345
PPVKRRLDLEADH [T11A],0.272
PPVKRRWDLETDH [L7W],-0.00153
PFVKRRLDLETDH [P2F],0.504
PPSKRRLDLETDH [V3S],0.185
PRVKRRLDLETDH [P2R],0.106
PPVKRRRDLETDH [L7R],-0.472
PPVKRRLDLETDL [H13L],0.0604
PQVKRRLDLETDH [P2Q],0.21
PPVKRKLDLETDH [R6K],0.138
PDVKRRLDLETDH [P2D],0.379
HPVKRRLDLETDH [P1H],0.58
PPVKRRLDLETVH [D12V],0.15
PPVKRRLDLATDH [E10A],0.256
PPQKRRLDLETDH [V3Q],0.272
DPVKRRLDLETDH [P1D],0.0264
PPVKRRLDLETEH [D12E],0.27
PPVKRYLDLETDH [R6Y],-0.0127
PPVGRRLDLETDH [K4G],-0.0905

# Sample 3 — technique: protein binding microarray; form: double-stranded DNA, one strand shown; medium: in vitro; tested at: not given; reference: not given; direction: higher = stronger binding
# Target: Histone acetyltransferase KAT6A, winged helix 2, GST fusion (KAT6A, Homo sapiens, UniProt Q92794, residues 85-181)
# Setting: 8-mer, flanks averaged, mean of 2 arrays, mostly near background
# Residues (chain): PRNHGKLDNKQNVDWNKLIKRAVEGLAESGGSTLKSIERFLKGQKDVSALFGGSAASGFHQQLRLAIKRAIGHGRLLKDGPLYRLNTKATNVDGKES
Sequence,E-score
GAAGCCGC,0.223
TAGCCAAA,0.0423
ATTGCGAC,0.0248
GGATTCAC,0.0434
CAACCTCG,0.0682
GCCACCAC,-0.0174
AGAAATAA,0.0577
AGCGGCTA,0.055
CCCCTAAG,-0.147
AGACCTTA,-0.0521
CGCGGCGC,0.15
TCGGTGAA,-0.105
ACGATGAT,-0.164
ATCTACGG,-0.172
AACTACCA,-0.161
GAGTTCCC,0.171
CAAGGTCG,-0.0355
CAGATTGC,0.1
CAATGACG,-0.0701
ACGCACAA,0.0911
AGACCTGA,-0.0339
CCTCACTA,0.00543
ACATTGGA,-0.161
AACCATGT,-0.059
CGAACGAC,0.0895

# Sample 4 — technique: universal PBM; form: double-stranded DNA, one strand shown; medium: in vitro; tested at: not given; direction: higher = stronger binding
# Target: Sal-like protein 4, full length isoform B (SALL4, Homo sapiens, UniProt Q9UJQ4-2, residues 1-616)
# Setting: 8-mer, flanks averaged, mean of replicates
Sequence,E-score
ATCTTACA,0.112
AGTTAAAT,0.24
CCGTATTC,0.0388
TACACGAA,0.0909
TGTTTGAA,0.188
GTCATGAC,0.0729
GTAGAACA,-0.0785
AAATCAGC,0.0824
TAGGAAAA,0.219
AAGAGCCC,-0.293
CGGTTGAG,-0.109
ATCCCAGA,-0.123
GCGCGAAA,0.0722
CTAGATGA,0.0721
CTAAGATA,0.106
GACCATAC,-0.0539
CATTAATC,0.207
CCAAGGAC,-0.125
ATAGTTCA,0.216

# Sample 5 — technique: RNA Bind-n-Seq; form: RNA; medium: in vitro; tested at: 365 nM; reference: no-protein control; direction: higher = stronger binding
# Target: RNA binding protein fox-1 homolog 2, RRM domain, GST-SBP tag (RBFOX2, Homo sapiens, UniProt O43251-10, residues 100-194)
# Setting: natural RNA segment, single round, ends assumed
# Shared flanks, not repeated: GGGAGUUCUACAGUCCGACGAUC … UGGAAUUCUCGGGUGCCAA
# Construct (chain): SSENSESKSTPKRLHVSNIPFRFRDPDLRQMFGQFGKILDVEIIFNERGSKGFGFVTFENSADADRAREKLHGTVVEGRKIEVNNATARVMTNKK
Sequence,RBNS enrichment (R)
GUCUUCAAUGCCACCUUCCACAUCUGGCACAGCGGACAGUUUGGCACAAUCAAUAAUUUCAGACUGGGUCGCUUGCCCAGUGUUCCUGUGGAGUGGAAUGAAAUCAAUGC,0.419
UCUUCCCUCCCACUGAACACUAUUCCCAUAGUUUCCUUUUGCUCCCCAGCCUGUAAUUCUAAGUUCAACAAAACAGUUGUCAACAAAAGUGACUGAGGCUUCCACCAGAG,1.03
GCAGCCACUGCUCCACCUCCCCCAAAUCGUCAUGGAAAGGGUGGAGAAUGGAGGGGAACCAGGCGUCCUUGGAGGCAGCUUGGGAGGGUGACUGUGUAGUGUCACCCACA,0.468
GUGGAUAUCUGCUUCCAUGACAGAACCUCUUGAGCACGCAGAGGGAGUGGCCACACCGCCUGUUGGAGAGGUCACUGAAAAAGACAUCACUGCAGAAGCAACUCCUGCAC,8.96
CACACACCUGUAUCCCUGGUAUCUAAGGCCUGUCCUCUAGUGCGAUUGUCAUCUCCAGGACUAUGAAAGAGGGAGGGUGGCGGUGUCUCUGUCUGCAAACAGUGUCAGGA,0.535
GGGGAGAUGUGAGCCUUCUCUGGAGGGAAGUUUCAUGAUUGCAUCUAUAAUGAAUAUAUUGCCUGUUUUGUGAAUACUGACACAUGUCCAUACCUAAAACACUCCUGAGU,1.02
AAGAAAGAUGUUGCUUACUAUGGUGUCAAGGUGACGGAUGAAGCCAGCUGCUCCUAAGGACACAGGGCUGGGUUGGUAAAGAGAAGGCUAUGGUUGACUUCUUGCUUGUG,1.53
AAGGGAGGGGUGGAGAUGGGUGUGGCAGUGUAUGGUGUGUGAUUUUUAUUUUCUUCUUUGGUCAUGGGGGCCAAGGAGAAAGGCAUGAAUCUUCCCUGUCAGGCUCUUAC,1.86
UGACUGCUUGGCUACGUACAGUAUAAGUAUUUCCUUUCUGUGACAUUGUGACAUACAAUUUAAACACUCAUUGGGCUGCUGUGCUGUGUAAAGAAAGAGGGACUGCAGUG,0.45
UGUAGUGGUCAAAGGAGCUCUGAUUGAGCUGGCAGGCCAGGUUUUGUAAAGAGCAAAAUUACUUUCAGGUCCCUUGUUGAGGGAACAGGUCAGCGUUAUCCUGCCAGACA,0.226
GUAAAUGCACCAAUUCUGAAGGCACUUUAUGUACUACAUGGAGGUCAUAUCUGGUUUUGUUUUUAUUUUUUUAUCAUGAACAUUAAAUGUGAUGAUGAUUUCUUUUCCCU,0.471
GUGUACUGUUGAAAGCAUUGUUCUUCAGGGCCCUUGUCCAACAGUGGCCCGUGCAGUCUGGGGUCCACAGCUCUUCCUCUCCUUCCUGUGCUCCCUGCCUUGCCUAGGAU,0.807

# Some of these lines once more (sample 2):
Variant,normalised enrichment score
PPVKRRLDLEADH [T11A],0.272
PPVKRRWDLETDH [L7W],-0.00153
PFVKRRLDLETDH [P2F],0.504
PPSKRRLDLETDH [V3S],0.185
PRVKRRLDLETDH [P2R],0.106
PPVKRRRDLETDH [L7R],-0.472
PPVKRRLDLETDL [H13L],0.0604
PQVKRRLDLETDH [P2Q],0.21
PPVKRKLDLETDH [R6K],0.138
PDVKRRLDLETDH [P2D],0.379
HPVKRRLDLETDH [P1H],0.58
PPVKRRLDLETVH [D12V],0.15
PPVKRRLDLATDH [E10A],0.256
PPQKRRLDLETDH [V3Q],0.272
